# Results gathered from unrelated publications.
# Compare with care: the assays were run in different laboratories.
# Organism: Klebsiella pneumoniae
SMILES,test,system,conditions,MIC
C[C@H]1COc2c(N3CCN(C)CC3)c(F)cc3c(=O)c(C(=O)O)cn1c23,broth microdilution,NCTC 13438,"24 h, 5% CO2",128 µg/mL
C[C@@H](O)[C@H]1C(=O)N2C(C(=O)O)=C(S[C@@H]3CN[C@H](C(=O)N(C)C)C3)[C@H](C)[C@H]12,,"DOU CTX-M-15, Mueller Hinton broth","overnight, 37 °C",> 512 µg/mL
CC[C@H](C)[C@H](NC(=O)[C@H](CCCCN)NC(=O)[C@H](CCC(=O)O)NC(=O)[C@H](CCCCN)NC(=O)[C@H](CO)NC(=O)[C@H](CCCCN)NC(=O)[C@H](CCCNC(=N)N)NC(=O)[C@H](Cc1ccccc1)NC(=O)[C@H](Cc1ccccc1)NC(=O)[C@H](CC(=O)O)NC(=O)CNC(=O)[C@H](CC(C)C)NC(=O)[C@@H](N)CC(C)C)C(=O)NCC(=O)N[C@@H](CCCCN)C(=O)N[C@@H](CCC(=O)O)C(=O)N[C@@H](Cc1ccccc1)C(=O)N[C@@H](CCCCN)C(=O)N[C@@H](CCCNC(=N)N)C(=O)N[C@H](C(=O)N[C@H](C(=O)N[C@@H](CCC(N)=O)C(=O)N[C@@H](CCCNC(=N)N)C(=O)N[C@H](C(=O)N[C@@H](CCCCN)C(=O)N[C@@H](CC(=O)O)C(=O)N[C@@H](Cc1ccccc1)C(=O)N[C@@H](CC(C)C)C(=O)N[C@@H](CCCNC(=N)N)C(=O)N[C@@H](CC(N)=O)C(=O)N[C@@H](CC(C)C)C(=O)N[C@H](C(=O)N1CCC[C@H]1C(=O)N[C@@H](CCCNC(=N)N)C(=O)N[C@H](C(=O)N[C@@H](CCC(=O)O)C(=O)N[C@@H](CO)C(=O)O)[C@@H](C)O)C(C)C)[C@@H](C)CC)C(C)C)[C@@H](C)CC,,ATCC 43823,highest concentration 50 µM,16.7 µM
CC(C)C[C@@H]1NC(=O)[C@@H](Cc2ccccc2)NC(=O)[C@H](CCN)NC(=O)[C@@H](NC(=O)[C@H](CCN)NC(=O)[C@@H](N)[C@@H](C)O)CCNC(=O)[C@H]([C@@H](C)O)NC(=O)[C@H](CCN)NC(=O)[C@H](CCN)NC1=O,,ATCC 13883,compound alone,> 200 µg/mL
NC[C@H]1O[C@H](O[C@H]2[C@H](O)[C@@H](O[C@H]3O[C@H](CO)[C@@H](O)[C@H](N)[C@H]3O)[C@H](N)C[C@@H]2N)[C@H](O)[C@@H](O)[C@@H]1O,broth microdilution,ATCC 43816,,1.72 µM
O=C(Cc1ccccc1)N[C@@H]1C(=O)N2C(C(=O)O)=C(CSc3cccc4cccnc34)C[S+]([O-])[C@H]12 (stereo partly drawn),,11228,,16 µg/mL
CN(C)c1ccc(O)c2c1C[C@H]1C[C@H]3[C@H](N(C)C)C(O)=C(C(N)=O)C(=O)[C@@]3(O)C(O)=C1C2=O,broth microdilution,NCTC 13438,"24 h, ambient air",8 µg/mL
C[C@H]1COc2c(N3CCN(C)CC3)c(F)cc3c(=O)c(C(=O)O)cn1c23,agar dilution,16-14 ESBL,,0.5 µg/mL
C[C@@H](O)[C@H]1C(=O)N2C(C(=O)O)=C(S[C@@H]3CN[C@H](C(=O)N(C)C)C3)[C@H](C)[C@H]12,"broth microdilution, MH medium",NCCP 16054,"16 h, 37 °C, growth inhibition over 99%",0.5 µM
Cc1cc(NS(=O)(=O)c2ccc(N)cc2)no1,broth microdilution,ATCC 43816 acrAB knockout,,32 µg/mL
COc1cccc(CNc2ccc(C(=O)O)cc2)c1,broth microdilution,,,64 µg/mL
Cc1c(CN(C)C(=O)/C=C/c2cnc3c(c2)CC(NC(=O)OC(C)(C)C)C(=O)N3)oc2ccccc12 (stereo not drawn),broth microdilution,AR-0542,,> 32 µg/mL
CNC(C)C1CCC(N)C(OC2C(N)CC(N)C(OC3OCC(C)(O)C(NC)C3O)C2O)O1 (stereo not drawn),,"9908, RPMI 1640 10% FBS","18 to 24 h, 37 °C",12.5 µM
FC(F)(F)Oc1ccc(OCCn2c(CNCC34CC5CC(CC(C5)C3)C4)nc3ccccc32)cc1,,ATCC 700603,,> 128 µg/mL
CCO/N=C(\C(=O)N[C@@H]1C(=O)N2C(C(=O)[O-])=C(Sc3nc(-c4cc[n+](C)cc4)cs3)CS[C@H]12)c1nsc(NP(=O)(O)O)n1,broth microdilution,"clinical isolate, Mueller-Hinton broth","24 h, 37 °C",400 µM
CNC(C)C1CCC(N)C(OC2C(N)CC(N)C(OC3OCC(C)(O)C(NC)C3O)C2O)O1 (stereo not drawn),broth microdilution,NCTC 13438,"24 h, 5% CO2",4 µg/mL
Cc1c(CN(C)C(=O)/C=C/c2cnc3c(c2)CCC(=O)N3)oc2ccccc12,broth microdilution,S20595,,> 32 µg/mL
CO/N=C(\C(=O)N[C@@H]1C(=O)N2C(C(=O)O)=CCS[C@H]12)c1csc(N)n1,broth microdilution,BNCC 359393,,> 64 µg/mL

# For quick reference, copied from above:
SMILES,test,system,conditions,MIC
Cc1cc(NS(=O)(=O)c2ccc(N)cc2)no1,broth microdilution,ATCC 43816 acrAB knockout,,32 µg/mL
COc1cccc(CNc2ccc(C(=O)O)cc2)c1,broth microdilution,,,64 µg/mL
Cc1c(CN(C)C(=O)/C=C/c2cnc3c(c2)CC(NC(=O)OC(C)(C)C)C(=O)N3)oc2ccccc12 (stereo not drawn),broth microdilution,AR-0542,,> 32 µg/mL
